Measurements pooled from the literature.
Each numbered part is a random draw from the data of one study; scales do not carry over between parts.

Sample 1
Target: RING finger protein unkempt homolog, zinc fingers 1-6, GST-SBP tag (UNK, Homo sapiens, UniProt Q9C0B0, residues 30-357)
UniProt Q9C0B0, sequence (30-357, looked up): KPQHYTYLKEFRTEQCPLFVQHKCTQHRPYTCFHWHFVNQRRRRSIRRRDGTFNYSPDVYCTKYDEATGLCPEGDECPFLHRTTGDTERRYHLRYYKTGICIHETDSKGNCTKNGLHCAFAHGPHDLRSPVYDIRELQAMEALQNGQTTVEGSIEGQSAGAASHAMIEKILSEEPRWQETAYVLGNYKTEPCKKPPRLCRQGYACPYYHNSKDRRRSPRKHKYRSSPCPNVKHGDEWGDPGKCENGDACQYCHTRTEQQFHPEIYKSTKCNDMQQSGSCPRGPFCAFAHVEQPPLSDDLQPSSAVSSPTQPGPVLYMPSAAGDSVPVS
Technique: RNA Bind-n-Seq
Form: RNA
Sample: in vitro
Tested at: not given
Setting: RNA with constant flanks, human and mouse sites, ends assumed
Baseline: input RNA pool
Direction: higher = stronger binding
Constant ends, left off below: GGGAGUUCUACAGUCCGACGAUC … CAACAGAGGAUUGAGCAUCA
Sequence | bound/input enrichment
GGAAUAUUCAUUGUACUGAAUAUUACCCUUGUGCUUGCCGCUGUAUUUAAACUUGAAACAGAUAGAAGUAUAUGGCCCUUGAUAAGAAUCUAUCGGGGUGGCUUUCUUCUGAUUGAAUUC | 0.191 ratio
GUAAUGGGAAGUGGGCCAAAGGAAUCAGCUUUAAAAGCCCUAAAUAGUGACAUGCCCUUAUAUAUUCUGUCAUCCUCUCAAGGUAGAGGGCUGAAACCUCAUUAUGCUCAACUUAUGAGG | 0.466 ratio
UCAGACACCAUGGUGUGCCAGUCUUCCUCAACUGUAGGUCAGUCAUUCAGUGAACAACACAUUAGCCAACUUCAAGAAAGCAUUCGGGCAGAGAUACCCUGUGAAGAUGAACAAGAGCAA | 0.236 ratio
GAGUUAGACCCCAAGUUGGCUCCCUGGAUCCAGAGACUGAAUAGUUUUGGCUUGGAUGCCAUAGGACCCUUUUUCACUCGGUACGGAGCAUCUCUCAAGGAGCUUGAUUUCCACGUCGUG | 0.286 ratio
GGAACCUGCCGGGGCAGCGGACGUUGGAAGGGCGCUGGGCCUCGGCUGGGACCGUUCAUGUAGCAGCAACCGGCGGCGGCUGCCGCAGAGCAGCGUUCGGUUUUGUUUUUAAAUUUUGAA | 0.649 ratio
CUUCCCUUUGGAGACAAAGACACAAAAUCCAAAGUGACCCUGCUGGAAGGUGACCAUGUUAGGUUUAAUAUUUCAACAGACCGACGUGACAAAUUGGAACGAGCAACCAACAUAGAGGUU | 0.277 ratio
AAAAUACUACAAGCAGGUUUUAAGAGAAUGGGUGUUGACAAAAUAAUUCCUGUGGACAAAUUAGUAAAAGGAAAGUUUCAGGACAAUUUUGAAUUCGUUCAGUGGUUCAAGAAGUUUUUC | 0.532 ratio
UGUGUUCACAAUUACGUGAAGGGAGGACCCUUGGGGACCGCCAUUCUAAAUAUCAUGUAGGAAUUUAAAAAGCCAAAAUACUAAUUAUUUCUUUGUAGUGUGUAAAGGAAUGUUUUUAAA | 1.96 ratio
ACGCAGUUAAUCCAGUUGAGUACCUUACUCAGGUUACUGGACAGUGGAUUUUGUAGCUAUUUAGAAUCCCAGGACUCUGGAUAUCUAUAUUUUUGCUUCAGAUGGCUUUUAAUCAGAUUU | 0.201 ratio
UGCGGCUGGCUCUAGGCGAUGCCGAGCAGCUCGGACACGGCGCUGGGGGGAGGCGGGGGCCUGAGCUGGGCGGAGAAGAAGUUGGAGGAACGCCGCAAGCGGAGGCGAUUCCUGUCCCCU | 0.19 ratio
GGGCAGACUAAGACAGUCAGAGUGUUCCGCUUUAUAACUGAUAACACUGUAGAAGAAAGAAUAGUAGAACGUGCUGAGAUGAAACUCAGACUGGAUUCAAUAGUCAUUCAACAAGGGAGG | 1.48 ratio

Sample 2
Target: RNA binding protein fox-1 homolog 2, RRM domain, GST-SBP tag (RBFOX2, Homo sapiens, UniProt O43251-10, residues 100-194)
Technique: RNA Bind-n-Seq
Form: RNA
Sample: in vitro
Tested at: 365 nM
Setting: natural RNA segment, single round, ends assumed
Baseline: no-protein control
Direction: higher = stronger binding
Constant ends, left off below: GGGAGUUCUACAGUCCGACGAUC … UGGAAUUCUCGGGUGCCAA
Target sequence (chain): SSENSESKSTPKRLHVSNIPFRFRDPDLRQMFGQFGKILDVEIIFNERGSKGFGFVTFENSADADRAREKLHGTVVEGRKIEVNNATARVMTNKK
Sequence | RBNS enrichment (R)
UCACCUUCACCAUGGGCUUCCUGGGUGCGCGGGCCUGAGCGCAGGUUGUUUUGUACAUAUUGGAAUAUGUGUUAACUUAUGCCCCGCAUCCCAACUCACACGGAAGCACG | 0.73
UCUAGAAGUAUACCGACCAAAAUCUAGUAUUGACAUGAUCUUGACAGGCUGGACCUGUGAGAUAUGGUUUGAAUUUUAACCAGUUUAUCACAUAACCUCUAGAGACCAUG | 0.267
ACCUCUUGCUGUGUUUGGAUCCCUUGGCCUUGUUUUGUAGAGGUGAAGUACCCCUGGAUCAUGUCCGAGUUUUUGUCUUUCACUGUCUGAAUCAUGUUCCAGCUGCUUGA | 1.34
CUUAAGCCUUUCUCCAAGUCUGGAUUCCAGAAAUGUUCCCCACAUCAAGGCUCUGACACCCCAGCCCUCCAAACCUGAACUCUGAGGCCUAGGCCUCUUUAAGUCAAGAC | 0.24
UAAGCACCAUGUGCUAGGCCUCCUCUUAAAUGUUUUUUAAAAAAUAUUAACUUGUUCAAUUCCCUUAACUCUAUGAAAUAGGCAUUAUUACUACCCCCAGGUUUUCAAAU | 0.498
UCAUGCUGCAUUUACUGUUUACAUUUGUUUUAUUGUACAUAGGUUUGUAAACAUUAUUGCCUGAGAUAUUUGUAUAUAACUUGGGCUUUGUAGCUUUUAUUUAUUCAGAA | 0.56
UUCGAUGUGGGCACCUGGGCUUCCUAGGGCUGCUUCUGAGUGGUUCUUUCACGUGUUGUGUCCAUAGCUUUAGUCUUCCUAAAUAAGAUCCACCCACACCUAAGUCACAG | 0.522
UGUGAUGGUAGUGACUUUAUGAGUUGUGAAUGGUCCUUGGCAGUCUGCCUGCUUUCUCAGAGUCUGGGCAGGCCGAUGGGAACUGUCAUCUCCUUAGGGAUGUGUGUGUU | 1.66
UCACCCAGGGCUCCUAGGGGGACAAGGCUCUCUCCCGAGGGGUGUGGAAUUCCUGGGGGGGUCUUUAAUUCUGGCUCCUUCCUUCCUCAGAACAUCUCUAUUCUGCAAGA | 0.744
UACCUUUUUAGGCCCCUGUAACUUCCCACCUUUAAACUGCCCAGAAGGCAUGCCUCUCCCACAGGAAGAGGGGAGCAGACAGGGAAAUCUGCCUACCAAGAGGGGUGUGU | 0.418
CCUUCAGCGCUGCAGAGCAGUAAGCUAUCCAUCCAGUGAGUGUGGCGGCUCUUUCUACAGCUGAACUCCUCCUCAGUUGAGUUUUCAGUUUCUGGCUUGCUUCUCCCUUU | 0.508
UUCAAUACACUUUAGGUAGCCGAUUAUCUGAUUUAAGUGCAGACACACUUUUCUCACAUUGAGUUGUAUGCAGAAUGUAGCUUCAGAUGUAUUCAUUAUAGUUACAAUAU | 0.684

Sample 3
Target: Histone acetyltransferase KAT6A, both winged helices, GST fusion (KAT6A, Homo sapiens, UniProt Q92794, residues 1-181)
Technique: protein binding microarray
Form: double-stranded DNA, one strand shown
Sample: in vitro
Tested at: not given
Setting: 8-mer, flanks averaged, mean of 2 arrays, mostly near background
Baseline: not given
Direction: higher = stronger binding
Target sequence (chain): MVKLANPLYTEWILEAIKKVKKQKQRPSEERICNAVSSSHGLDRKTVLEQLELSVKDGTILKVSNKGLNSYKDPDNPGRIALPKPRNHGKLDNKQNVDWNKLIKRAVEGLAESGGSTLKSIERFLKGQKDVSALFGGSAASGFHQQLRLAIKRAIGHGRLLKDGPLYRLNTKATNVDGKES
Sequence | E-score
ATTCCTCA | -0.0762
GGCTTCCC | 0.0552
TCTGCGCA | 0.175
CCTCCTAC | -0.107
CGGCATGA | 0.3
CTGGGCCC | -0.122
CTCATGGA | -0.0924
CAATACAC | 0.0214
CCCTCGCG | 0.22
CGTTTACA | 0.105
GCCTGAGC | 0.00761
GAACTAGA | -0.0203
CCCAGAAG | -0.165
CTAAACGC | 0.128
CATTGGTC | -0.165
ACAGTCGG | 0.135
CGGGAAGC | 0.254
CCGGGCCC | 0.22

Sample 4
Target: Sal-like protein 4, full length isoform B (SALL4, Homo sapiens, UniProt Q9UJQ4-2, residues 1-616)
Technique: universal PBM
Form: double-stranded DNA, one strand shown
Sample: in vitro
Tested at: not given
Setting: 8-mer, flanks averaged, mean of replicates
Direction: higher = stronger binding
Sequence | E-score
GTCGTGAA | -0.185
ACAATCGA | -0.00124
GACACAGA | -0.0317
GGTTTTTA | 0.158
ATACAACC | 0.0351
GTTGGCTA | -0.121
CTGGGAAG | -0.167
TAAGAAAA | 0.189
CGAGGACG | -0.248
AGTAATAA | 0.397
GAGGCCCC | -0.316
ATGTATTG | 0.273
ACACGTCT | 0.0425
ATACTGGG | -0.044
CCGCGAGA | -0.243
GTCGCTGA | -0.00541
ATTGCGTA | 0.109
GATGGTGA | -0.1
CTCCACAC | -0.0722
GTTCGGTA | 0.00015
AGAAGTAC | 0.0343
GCCGTCCA | -0.159
AGGAAAAG | 0.154
CTTGTGTC | -0.131

For quick reference, copied from above (sample 4):
Sequence | E-score
ATTGCGTA | 0.109
GATGGTGA | -0.1
CTCCACAC | -0.0722
GTTCGGTA | 0.00015
AGAAGTAC | 0.0343
GCCGTCCA | -0.159
